Results gathered from unrelated publications.
Compare with care: the assays were run in different laboratories. Numbers after ± are the reported error.

SMILES	test	test system	conditions	tissue uptake
O=C(O)C1CN(Cc2ccc(-c3noc(-c4ccc(OCC[18F])c(C(F)(F)F)c4)n3)cc2)C1		male Sprague-Dawley rat, liver	intravenous, 5 min	6.08 ± 1.13 %ID/g
CCCC[C@H](NC(=O)CNC(=O)CNC(=O)CN1CCN(CC(=O)O)CCN(CC(=O)O)CC1)C(=O)N[C@H]1CC(=O)NCCCC[C@@H](C(N)=O)NC(=O)[C@H](Cc2c[nH]c3ccccc23)NC(=O)[C@H](CCCNC(=N)N)NC(=O)[C@@H](Cc2ccccc2)NC(=O)[C@H](Cc2c[nH]cn2)NC1=O [gallium-67 labelled]		female C57 mice, B16/F1 melanoma, stomach	intravenous, 0.037 MBq, 4 h	1.45 ± 0.23 %ID/g
CC(C)[C@H](NC(=O)[C@@H]1CCCN1C(=O)[C@H](CCCNC(=N)N)NC(=O)[C@H](CS)NC(=O)[C@H](Cc1c[nH]c2ccccc12)NC(=O)[C@H](CCCNC(=N)N)NC(=O)[C@@H](Cc1ccccc1)NC(=O)[C@H](Cc1c[nH]cn1)NC(=O)[C@H](CCC(=O)O)NC(=O)[C@H](CS)NC(=O)[C@H](CS)NC(=O)CNC(=O)[C@@H]1CC(=O)N[C@@H](CCCNC(=N)N)C(=O)NCC(=O)N[C@@H](CC(=O)O)C(=O)N[C@H](Cc2ccc(O)cc2)C(=O)N1)C(N)=O [technetium-99m labelled]		C57 mouse, female, B16/F1 melanoma, lung	intravenous, 0.037 MBq, 0.5 h	7.49 ± 2.03 %ID/g
CCCC[C@H](NC(=O)CNC(=O)CNC(=O)CN1CCN(CC(=O)O)CCN(CC(=O)O)CCN(CC(=O)O)CC1)C(=O)N[C@H]1CC(=O)NCCCC[C@@H](C(N)=O)NC(=O)[C@H](Cc2c[nH]c3ccccc23)NC(=O)[C@H](CCCNC(=N)N)NC(=O)[C@@H](Cc2ccccc2)NC(=O)[C@H](Cc2c[nH]cn2)NC1=O [lead-203 labelled]		C57 mouse, bone	intravenous, 0.056 MBq, 4 h	0.77 ± 0.35 %ID/g
O=C([O-])c1cccc(CN(CCN(Cc2cn(Cc3ccccc3)nn2)Cc2cccc(C(=O)[O-])n2)Cc2cn(Cc3ccccc3)nn2)n1.[64Cu+2]		nude athymic mice, healthy, femur	intravenous, 4 h, 64Cu label	2.38 %ID/g
CC(C)[C@H](NC(=O)[C@@H]1CCCN1C(=O)[C@H](CCCNC(=N)N)NC(=O)[C@H](CS)NC(=O)[C@H](Cc1c[nH]c2ccccc12)NC(=O)[C@H](CCCNC(=N)N)NC(=O)[C@@H](Cc1ccccc1)NC(=O)[C@H](Cc1c[nH]cn1)NC(=O)[C@H](CCC(=O)O)NC(=O)[C@H](CS)NC(=O)[C@H](CS)NC(=O)[C@@H]1CC(=O)N[C@@H](CCCNC(=N)N)C(=O)NCC(=O)N[C@@H](CC(=O)O)C(=O)N[C@H](Cc2ccc(O)cc2)C(=O)N1)C(N)=O [technetium-99m labelled]		C57 mouse, female, B16/F1 melanoma, heart	intravenous, 0.037 MBq, 24 h	0.08 ± 0.03 %ID/g
O=C([O-])CN1CCN(CC(=O)[O-])CCN(CC(=O)NCCc2ccc3c(c2)C2C=CCC2C(c2cc4c(cc2Br)OCO4)N3)CCN(CC(=O)[O-])CC1.[111In+3] (stereo not drawn)		mouse, Hec50 endometrial tumour, lungs	2 h post injection	0.8 ± 0.11 %ID/g
CCCC[C@H](NC(=O)CNC(=O)CNC(=O)CN1CCN(CC(=O)O)CCN(CC(=O)O)CC1)C(=O)N[C@H]1CC(=O)NCCCC[C@@H](C(N)=O)NC(=O)[C@H](Cc2c[nH]c3ccccc23)NC(=O)[C@H](CCCNC(=N)N)NC(=O)[C@@H](Cc2ccccc2)NC(=O)[C@H](Cc2c[nH]cn2)NC1=O [copper-64 labelled]		C57 mouse B16/F1 melanoma, heart	0.5 h	0.89 ± 0.29 %ID/g
CN(C)c1ccc(-c2nc3ccc(OCCCCCN4CCN5CCN(CC4)CC(=O)[O][Al]([18F])[O]C(=O)C5)cc3s2)cc1		ICR mouse, pancreas	intravenous, 10 min	3.16 ± 0.66 %ID/g
CCCC[C@@H]1NC(=O)[C@@H](NC(=O)[C@H](CCC(=O)O)NC(=O)CNC(=O)CN2CCN(CC(=O)O)CCN(CC(=O)O)CCN(CC(=O)O)CC2)CCCCNC(=O)C[C@@H](C(N)=O)NC(=O)[C@H](C(C)C)NC(=O)[C@@H]2CCCN2C(=O)[C@H](CCCNC(=N)N)NC(=O)CNC(=O)[C@H](Cc2c[nH]c3ccccc23)NC(=O)[C@H](CCCNC(=N)N)NC(=O)[C@@H](Cc2ccccc2)NC(=O)[C@H](Cc2c[nH]cn2)NC(=O)[C@H](CCC(=O)O)NC1=O [gallium-67 labelled]		normal C57 mice, muscle	intravenous, 0.037 MBq/mouse, 4 h	0.05 ± 0.02 %ID/g
CCCC[C@H](NC(=O)CNC(=O)CNC(=O)CN1CCN(CC(=O)O)CCN(CC(=O)O)CCN(CC(=O)O)CC1)C(=O)N[C@H]1CC(=O)NCCCC[C@@H](C(N)=O)NC(=O)[C@H](Cc2c[nH]c3ccccc23)NC(=O)[C@H](CCCNC(=N)N)NC(=O)[C@@H](Cc2ccccc2)NC(=O)[C@H](Cc2c[nH]cn2)NC1=O [copper-64 labelled]		C57 mouse B16/F1 melanoma, tumor	0.5 h	5.61 ± 0.91 %ID/g
C[C@H](CN(C)Cc1ccccc1)NC(=O)c1ccc(-c2noc(C(F)(F)[18F])n2)cc1	PET imaging	female Sprague-Dawley rats, brain	intravenous, 30 min	1.57 ± 0.29 SUV

Some of these lines once more:
SMILES	test	test system	conditions	tissue uptake
CCCC[C@H](NC(=O)CNC(=O)CNC(=O)CN1CCN(CC(=O)O)CCN(CC(=O)O)CCN(CC(=O)O)CC1)C(=O)N[C@H]1CC(=O)NCCCC[C@@H](C(N)=O)NC(=O)[C@H](Cc2c[nH]c3ccccc23)NC(=O)[C@H](CCCNC(=N)N)NC(=O)[C@@H](Cc2ccccc2)NC(=O)[C@H](Cc2c[nH]cn2)NC1=O [copper-64 labelled]		C57 mouse B16/F1 melanoma, tumor	0.5 h	5.61 ± 0.91 %ID/g
